Measurements collected from several papers.
A part holds a random share of what one study measured. Substitutions count along the parent as printed.
UniProt P07949, sequence (whole entry, looked up): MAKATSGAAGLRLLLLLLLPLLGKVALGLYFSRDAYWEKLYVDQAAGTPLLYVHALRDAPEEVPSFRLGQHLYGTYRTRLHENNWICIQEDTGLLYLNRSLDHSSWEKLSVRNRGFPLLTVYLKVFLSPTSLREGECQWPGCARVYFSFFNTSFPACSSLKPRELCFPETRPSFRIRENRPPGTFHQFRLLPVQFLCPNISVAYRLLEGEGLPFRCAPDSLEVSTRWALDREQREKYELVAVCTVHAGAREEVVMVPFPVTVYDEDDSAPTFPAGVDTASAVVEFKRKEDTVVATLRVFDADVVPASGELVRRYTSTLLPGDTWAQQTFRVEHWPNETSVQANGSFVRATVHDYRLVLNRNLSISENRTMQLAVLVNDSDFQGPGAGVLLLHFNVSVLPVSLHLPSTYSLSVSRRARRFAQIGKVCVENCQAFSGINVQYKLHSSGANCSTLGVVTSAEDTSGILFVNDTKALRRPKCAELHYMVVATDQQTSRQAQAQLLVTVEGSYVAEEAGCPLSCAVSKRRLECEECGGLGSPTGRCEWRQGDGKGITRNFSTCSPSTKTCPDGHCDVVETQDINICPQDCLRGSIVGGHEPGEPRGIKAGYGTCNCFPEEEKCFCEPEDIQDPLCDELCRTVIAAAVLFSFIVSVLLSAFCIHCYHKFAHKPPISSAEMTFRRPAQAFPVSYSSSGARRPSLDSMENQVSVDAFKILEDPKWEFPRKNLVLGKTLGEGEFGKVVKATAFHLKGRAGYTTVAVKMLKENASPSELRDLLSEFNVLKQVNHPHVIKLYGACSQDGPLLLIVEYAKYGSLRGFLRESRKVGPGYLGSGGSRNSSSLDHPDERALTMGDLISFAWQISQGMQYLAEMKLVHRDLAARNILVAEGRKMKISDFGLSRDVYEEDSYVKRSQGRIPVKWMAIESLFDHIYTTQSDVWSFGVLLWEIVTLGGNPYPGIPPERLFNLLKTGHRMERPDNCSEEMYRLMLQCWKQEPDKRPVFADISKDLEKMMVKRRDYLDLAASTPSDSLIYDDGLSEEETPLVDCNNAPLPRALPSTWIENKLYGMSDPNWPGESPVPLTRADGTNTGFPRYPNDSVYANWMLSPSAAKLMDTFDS

Block 1 — method: protein-binding microarray; form: double-stranded DNA, one strand shown; medium: in vitro; tested at: 2540 nM top; notes: 60-bp whole probe; with: salmon DNA 0.4 mg/ml; baseline: random background probes; direction: higher = stronger binding; shared flanks, not repeated: GCCTAGCAC … GTCTTGATTCGCTTGACGCTGCTG
Target: Interferon regulatory factor 3, full length, phosphomimetic (IRF3, Homo sapiens, UniProt Q14653, residues 1-427, S386D/S396D/S398D/S402D/T404D/S405D)
UniProt Q14653, sequence (whole entry, unmodified, looked up): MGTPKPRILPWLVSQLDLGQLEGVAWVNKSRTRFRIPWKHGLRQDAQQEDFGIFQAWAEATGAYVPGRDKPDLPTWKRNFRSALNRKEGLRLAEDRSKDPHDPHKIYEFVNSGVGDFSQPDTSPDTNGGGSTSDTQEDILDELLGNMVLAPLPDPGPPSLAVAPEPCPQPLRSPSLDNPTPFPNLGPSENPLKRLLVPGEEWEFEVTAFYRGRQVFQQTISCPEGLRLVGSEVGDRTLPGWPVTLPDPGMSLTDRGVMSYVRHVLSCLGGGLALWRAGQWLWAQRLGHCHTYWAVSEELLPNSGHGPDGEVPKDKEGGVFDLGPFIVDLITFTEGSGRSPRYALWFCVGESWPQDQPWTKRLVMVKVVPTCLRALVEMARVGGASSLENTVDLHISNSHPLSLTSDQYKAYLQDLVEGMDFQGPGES
Oligonucleotide	fitted relative affinity
TAAGAACTGGGGTATCGATTAGTGCTA	-0.327 z-score
TTAGAACTTGGGTATCGATTAGTGCTA	-0.278 z-score
TTAGGTATCCTACTGTTTTAGTGCTAG	2.29 z-score
TTTGAACTGAGTCTCGATTAGTGCTAG	-0.218 z-score
GACGAACTGCTTTTCCTGACGTGCTAG	0.0989 z-score
GACGATTTCAGACTGGGGACGTGCTAG	0.897 z-score
TCAAGTTTCTCCTTTCGACTGTGCTAG	2.04 z-score
TCAATTCTCGGGACTCACACTGTGCTA	0.557 z-score

Block 2 — target: CCNB1, cyclin fold, Cln2 fusion (human); method: yeast growth competition, sequencing; medium: yeast; notes: weak parent motif; baseline: not given; direction: higher = stronger binding
Parent: RBL1 docking peptide (human); GSAKRRLFGEDPP
Change	normalised enrichment score
GSAKRRLMGEDPP [F8M]	0.317
GSAKRRLFGEDPL [P13L]	1.58
GSAKRRRFGEDPP [L7R]	0.323
ASAKRRLFGEDPP [G1A]	0.503
QSAKRRLFGEDPP [G1Q]	0.326
GSAKFRLFGEDPP [R5F]	0.378
TSAKRRLFGEDPP [G1T]	1.18
GSAYRRLFGEDPP [K4Y]	0.617

Block 3 — method: universal PBM; form: double-stranded DNA, one strand shown; medium: in vitro; tested at: not given; direction: higher = stronger binding
Target: Sal-like protein 4, full length isoform B (SALL4, Homo sapiens, UniProt Q9UJQ4-2, residues 1-616)
Notes: 8-mer, flanks averaged, mean of replicates
Oligonucleotide	E-score
GTATCGGA	0.0161
CTCAGTGC	-0.176
GCCCCCCC	-0.395
CTTTGTGC	0.022
GAGCTCAA	-0.161
CTGCTACC	-0.0264
ACAAACAG	0.0641
GACAGCAC	-0.138

Further values, each from its own experiment
SMILES	target	read-out	mode	tested at	baseline	quantity	value
CN(C)CCCn1cc(C2=C(c3c[nH]c4ccccc34)C(=O)NC2=O)c2ccccc21	Proto-oncogene tyrosine-protein kinase receptor Ret (RET, Homo sapiens, UniProt P07949)	enzyme activity	inhibitor	0.5 µM	control	remaining activity	93.4%

Excerpt of the above (block 3):
Oligonucleotide	E-score
GAGCTCAA	-0.161
CTCAGTGC	-0.176
GCCCCCCC	-0.395
GACAGCAC	-0.138
